# Assay results from different studies.
# Every numbered part comes from another study and shows a few of its results, in no order. Substitutions count along the parent as printed.
# UniProt O15294, sequence (whole entry, looked up): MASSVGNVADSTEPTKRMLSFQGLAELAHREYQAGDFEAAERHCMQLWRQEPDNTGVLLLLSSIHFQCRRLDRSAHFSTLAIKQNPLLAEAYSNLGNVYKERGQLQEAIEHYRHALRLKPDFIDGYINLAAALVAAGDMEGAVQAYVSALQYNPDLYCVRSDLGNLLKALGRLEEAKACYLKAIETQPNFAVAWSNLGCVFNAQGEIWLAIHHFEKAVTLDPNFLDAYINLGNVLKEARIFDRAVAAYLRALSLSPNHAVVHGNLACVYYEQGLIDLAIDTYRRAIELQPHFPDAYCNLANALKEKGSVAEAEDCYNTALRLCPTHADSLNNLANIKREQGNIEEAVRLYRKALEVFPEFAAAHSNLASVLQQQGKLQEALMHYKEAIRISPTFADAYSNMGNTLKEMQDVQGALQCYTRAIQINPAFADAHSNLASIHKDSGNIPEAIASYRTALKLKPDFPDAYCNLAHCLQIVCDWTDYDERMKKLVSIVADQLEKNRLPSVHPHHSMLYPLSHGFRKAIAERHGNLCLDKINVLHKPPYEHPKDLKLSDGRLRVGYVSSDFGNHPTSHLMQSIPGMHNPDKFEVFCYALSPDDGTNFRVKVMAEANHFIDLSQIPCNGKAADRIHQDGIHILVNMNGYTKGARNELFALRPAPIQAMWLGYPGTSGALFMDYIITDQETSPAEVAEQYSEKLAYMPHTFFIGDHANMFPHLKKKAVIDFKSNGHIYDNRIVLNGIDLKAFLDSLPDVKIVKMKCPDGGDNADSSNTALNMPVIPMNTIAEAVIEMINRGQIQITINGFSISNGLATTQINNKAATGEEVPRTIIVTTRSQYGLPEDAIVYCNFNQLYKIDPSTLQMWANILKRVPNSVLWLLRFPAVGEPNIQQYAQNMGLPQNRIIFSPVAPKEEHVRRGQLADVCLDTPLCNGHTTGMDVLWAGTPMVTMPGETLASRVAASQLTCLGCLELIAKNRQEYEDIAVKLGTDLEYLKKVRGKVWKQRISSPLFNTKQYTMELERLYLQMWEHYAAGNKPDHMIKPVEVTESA

# Block 1 — method: universal PBM; form: double-stranded DNA, one strand shown; medium: in vitro; concentration: not given; direction: higher = stronger binding
# Target: Sal-like protein 4, full length isoform B (SALL4, Homo sapiens, UniProt Q9UJQ4-2, residues 1-616)
# Notes: 8-mer, flanks averaged, mean of replicates
# Construct (chain): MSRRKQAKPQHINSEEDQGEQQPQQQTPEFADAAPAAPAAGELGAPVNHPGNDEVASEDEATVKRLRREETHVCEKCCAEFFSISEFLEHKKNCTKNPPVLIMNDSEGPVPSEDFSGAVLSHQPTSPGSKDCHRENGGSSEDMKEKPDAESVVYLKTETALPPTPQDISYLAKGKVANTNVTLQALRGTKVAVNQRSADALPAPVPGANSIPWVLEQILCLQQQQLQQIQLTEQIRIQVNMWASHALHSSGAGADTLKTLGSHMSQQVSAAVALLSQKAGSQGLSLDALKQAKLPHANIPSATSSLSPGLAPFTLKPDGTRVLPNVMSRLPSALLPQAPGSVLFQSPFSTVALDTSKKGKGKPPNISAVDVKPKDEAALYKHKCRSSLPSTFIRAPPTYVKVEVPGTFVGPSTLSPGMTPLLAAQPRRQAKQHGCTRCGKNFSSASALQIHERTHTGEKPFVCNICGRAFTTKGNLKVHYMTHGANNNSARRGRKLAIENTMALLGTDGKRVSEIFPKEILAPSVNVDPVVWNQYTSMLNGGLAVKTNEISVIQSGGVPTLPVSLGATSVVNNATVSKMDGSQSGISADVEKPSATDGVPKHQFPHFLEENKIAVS
Sequence,E-score
TGACGTCA,0.212
GACCAGAC,-0.21
CACACGCA,-0.151
ACAGTGCG,-0.181
CAATCTAG,0.119
AGCCAGGG,-0.3
AACCGTGC,-0.0605
CCTCGACG,-0.313

# Block 2 — target: CRIPT, C-terminal peptide; method: DHFR complementation, deep sequencing; medium: yeast; reference: wild type; direction: higher = weaker binding
# Notes: single substitutions, model-inferred values
# Starting sequence: ERBIN, PDZ domain 1 (human); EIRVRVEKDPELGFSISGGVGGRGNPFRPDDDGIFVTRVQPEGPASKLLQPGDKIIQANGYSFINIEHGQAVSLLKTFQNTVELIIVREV; partner TKNYKQTSV
Substitution,binding free energy change
R5D,0.219 kcal/mol
L49W,0.483 kcal/mol
V6R,1.04 kcal/mol
D30Q,0.339 kcal/mol
V39W,0.546 kcal/mol
P29T,0.0274 kcal/mol
D31R,1.16 kcal/mol
I34Q,0.861 kcal/mol

# Mixed results
# P1: PafA, mature enzyme, eGFP fusion (Elizabethkingia meningoseptica, UniProt Q9KJX5); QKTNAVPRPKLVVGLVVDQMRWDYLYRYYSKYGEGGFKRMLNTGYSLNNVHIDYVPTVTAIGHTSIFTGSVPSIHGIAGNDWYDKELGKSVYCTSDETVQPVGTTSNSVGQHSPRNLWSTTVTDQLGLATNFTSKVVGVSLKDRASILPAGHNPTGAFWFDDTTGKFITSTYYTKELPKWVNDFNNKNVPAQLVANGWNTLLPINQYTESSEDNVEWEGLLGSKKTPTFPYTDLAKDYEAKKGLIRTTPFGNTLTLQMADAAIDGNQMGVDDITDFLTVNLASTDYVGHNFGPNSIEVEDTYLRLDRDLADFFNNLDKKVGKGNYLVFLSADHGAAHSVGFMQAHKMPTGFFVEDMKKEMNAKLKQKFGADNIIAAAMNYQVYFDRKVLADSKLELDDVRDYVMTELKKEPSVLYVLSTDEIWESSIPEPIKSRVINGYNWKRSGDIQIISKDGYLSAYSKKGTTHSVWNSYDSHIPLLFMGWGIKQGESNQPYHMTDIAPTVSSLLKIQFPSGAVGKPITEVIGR
Substance,target,assay,test system,conditions,how to read,quantity,result
"PhoQ, residues 284 288 289 292 302 303 AGGCYF","PhoP, residues 12 14 15 18 19 HLGGL (Escherichia coli, UniProt P23836)","Sort-seq, measured: YFP reporter",E. coli,"PhoQ-PhoP variant library, with: 10 µM Mg2+","reference: high Mg2+ state, higher = stronger signaling",fold induction,4.62
YQAVPRFHVEHTHHD,"OGT (Homo sapiens, UniProt O15294)","phage display binding, phage display panning NGS",peptide,,reference: OGT-panned over input library,log2 fold enrichment,3.19
P1 N324V,"inorganic phosphate, free oxyanion",microfluidic competitive inhibition,"in vitro, cell-free expressed","not given, derived from inhibition constants, unchanged parent 615000 nM",lower = stronger binding,phosphate dissociation constant,529 µM

# Excerpt of the above (block 2):
Substitution,binding free energy change
R5D,0.219 kcal/mol
L49W,0.483 kcal/mol
